# Measured values of several laboratories.
# Each numbered part is a random draw from the data of one study; scales do not carry over between parts.

# Set 1
# Target: RNA binding protein fox-1 homolog 2, RRM domain, GST-SBP tag (RBFOX2, Homo sapiens, UniProt O43251-10, residues 100-194)
# Method: RNA Bind-n-Seq
# Molecule type: RNA
# Matrix: in vitro
# Tested at: 365 nM
# Setting: natural RNA segment, single round, ends assumed
# Baseline: no-protein control
# Direction: higher = stronger binding
# Construct (chain): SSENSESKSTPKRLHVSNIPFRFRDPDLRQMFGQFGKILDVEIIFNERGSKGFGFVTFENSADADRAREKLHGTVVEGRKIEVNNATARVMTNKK
Sequence,RBNS enrichment (R)
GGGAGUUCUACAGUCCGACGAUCAUCAUGCAAAAACCAUUUUGUUUCCAGGGUAACAAGUAACUAAGUGCAUGCACAACUUGUUUUCCCUUGUAACAUUCAUGAUCUCAUUUACAACUCUGAUUUUAAAACAAUGGAAUUCUCGGGUGCCAA,1.33
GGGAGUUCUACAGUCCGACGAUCAAUCAUGCCAGCUAAUCCUGUCCGUCACUGCCUGUCAGGUUGUUCCUAUAUACCUUCUGUAAAUAACUUUUUUUGAGAAGGAAAUAAAAUCAGCUGGAACUGAACCCUAAUGGAAUUCUCGGGUGCCAA,0.339
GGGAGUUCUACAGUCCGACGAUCUUUAGGCUAAUUAUACACGUCUGUCUGUGCCAUGAGUAAGUGGACUGUAGUUGGACCAAAAAAACAAAUGAGCCGUUGGACCAUUUGAGCAGUCAGUUUCUGGUCCUUAGUGGAAUUCUCGGGUGCCAA,0.839
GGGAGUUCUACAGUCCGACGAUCGGCACUUAAUAUUUUAAUUGUCUUAAGCUUUUUGAUGUAUAUAUCCUCUGGCCCCUUACAUGCUGCCAGAGGAGAAGGUGUUUGUUUGAGAUUCAUUCCACUUGAAGUGUUGGAAUUCUCGGGUGCCAA,0.527
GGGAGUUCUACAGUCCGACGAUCAUGCUAAGACUCUUUGGUAAUCUAGAAGAGCUUCUAGUGAGAACCUGAUGGUAGGUCGUGGGGCCUGGUGAUUUCAAACAAAGCCAUCGCCUGCGUUCUUUCUCCUUCUGUGGAAUUCUCGGGUGCCAA,0.293
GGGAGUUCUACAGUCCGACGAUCCAUUGUGAGGCCACUGGCAUGGAUGCUAUGCACCCCACCCUUUGCUGGCCAUAUUCCUCCUGUCCCCAUGCUGUGGCUCAUGCCAACCUAGCAAUAAGGAGCUCUGGAGAUGGAAUUCUCGGGUGCCAA,0.186
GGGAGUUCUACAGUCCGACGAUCCCCGUCCCUGCCCCGCCACCUCCCCAAAGAAUUGAAACGUCAGCUCAGGAUAUGGGGCCAAUCUCUGUGAGUCCAGCAUGUACCUGUCUCUCCCUAGUGUCCCUUCAGCCUGGAAUUCUCGGGUGCCAA,6.64
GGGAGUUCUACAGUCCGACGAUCUCACAUUAAAAAAUGAAAUAUUUUUUAAUUUAAAGCUUACUCUGUCCAUUUAUCCACAGGAAAGUGUUAUUUUUCAAGGAAGGUUCAUGUAGAGAAAAGCACACUUGUAGUGGAAUUCUCGGGUGCCAA,0.375

# Set 2
# Cell line: yeast with cyclin F-Cln2 chimera
# Read-out: cell growth
# Action: binder
# Method: competitive growth deep sequencing
# Molecule type: peptide
# Tested at: concentration not given
# Setting: peptide tiling library
# Direction: direction not given
Sequence,growth enrichment score
TTTTSPRTPPPLTVQD,-0.794
KVKRRLDLDIDGLQKE,4.01
RVSGLLSWTLSRVLWL,2.38
SPPRGRRLFPPGPAGF,2.33
RRRIKLPESDSSED,1.04
NSMKELNFSHLPSNSV,0.222
RQVRRDLFAF,2.24
VKTKKRLNFDDK,2.77
DSGFCLDSPGPLDSKE,-0.505
NEGVSNAVRRSLYIRD,1.34
KSKHEEEEWTDDDLVE,0.414
PFSENVSAVQKLDFSD,0.99
SMTDFYHSKRRLIFSK,3.52
LKGRRLVFDN,4.65
KRNLLNEFDRII,2.25

# Set 3
# Target: Histone acetyltransferase KAT6A, winged helix 1, GST fusion (KAT6A, Homo sapiens, UniProt Q92794, residues 1-85)
# Method: protein binding microarray
# Molecule type: double-stranded DNA, one strand shown
# Matrix: in vitro
# Tested at: not given
# Setting: 8-mer, flanks averaged, mean of 2 arrays, mostly near background
# Baseline: not given
# Direction: higher = stronger binding
# Residues (chain): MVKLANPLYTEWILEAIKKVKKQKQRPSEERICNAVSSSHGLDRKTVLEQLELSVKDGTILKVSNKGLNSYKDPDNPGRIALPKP
Sequence,E-score
CAATCGGG,0.102
CATGTCCC,0.0971
TAGTGTGA,-0.148
GGGAGCTA,-0.0146
CCGTACGG,0.463
GGGGCCCC,-0.0538
AGAAGACG,-0.106
CGATCCGC,0.246
CAACCTAG,-0.206
CCCTTCAA,-0.15
CTCTAGCC,-0.0148
ACTACTAG,0.0553
AAATTCGA,-0.203
GCCCTATA,-0.0115
CGTTTCGC,0.152
GTACAAGA,-0.212
CCGGGTGC,0.329
AGCGACCG,0.213
AGCAGGAG,-0.0826
GTGTTGTA,-0.13
ATTAGCTC,-0.162
TATCGCAA,-0.103
GGCTGCCC,0.102

# Set 4
# Target: RING finger protein unkempt homolog, zinc fingers 1-6, GST-SBP tag (UNK, Homo sapiens, UniProt Q9C0B0, residues 30-357)
# Method: RNA Bind-n-Seq
# Molecule type: RNA
# Matrix: in vitro
# Tested at: not given
# Setting: RNA with constant flanks, human-mouse chimeric sites, ends assumed
# Baseline: input RNA pool
# Direction: higher = stronger binding
# Construct (chain): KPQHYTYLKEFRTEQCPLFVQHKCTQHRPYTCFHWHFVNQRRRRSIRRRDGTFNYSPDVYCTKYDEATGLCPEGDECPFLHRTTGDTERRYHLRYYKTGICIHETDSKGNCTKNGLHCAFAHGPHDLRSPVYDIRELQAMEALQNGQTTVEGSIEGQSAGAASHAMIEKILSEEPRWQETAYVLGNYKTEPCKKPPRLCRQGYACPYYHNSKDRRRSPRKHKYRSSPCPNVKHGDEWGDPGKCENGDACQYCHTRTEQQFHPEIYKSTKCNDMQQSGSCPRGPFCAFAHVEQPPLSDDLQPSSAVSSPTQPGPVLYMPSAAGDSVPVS
Sequence,bound/input enrichment [ratio]
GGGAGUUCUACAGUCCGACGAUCGUAAUGUUUAUUCAUUUAACUUAUUUUUAGCACUUAGUAAAUAUUGUUAGUCUUAGACAAUAGCUCACAUUUUUUGAGAAGCAUGCCCUCCCUGUCCAUUUGUCUUAUAACAUGACCCAGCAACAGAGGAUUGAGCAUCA,33.3
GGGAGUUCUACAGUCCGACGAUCUUAAUCCCCUUUACUGCUCCCCCACUUGUCAUGCUGAUAACAAAGUCUUAUAUCCCCGUCCUAGCUUUUACUCAGAUGGCUUAUGGAGCCGGUUUCCUAGCUUUCUUGGGAGGGAUCAGACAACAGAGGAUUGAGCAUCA,0.642
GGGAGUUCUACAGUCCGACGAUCGGAAGUACAAUGAUGGAGAUUGAUGGUGACAAAGGCAAACAAGGCGGGCCCACCUACUACAUAGACACUAAUGCUCUCCGCGUGCCCAGGGAGAACAUGGAGGCCAUCUCACCACUCAAGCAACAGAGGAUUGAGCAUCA,0.571
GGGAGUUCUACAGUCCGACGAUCGCGGCAGAAUCAUGGUGGACAUAAUGCAGCUCCCCAAGUCGCGCAUCAACGCCAGCAUGUUACCACAGUAUAUCGACCGGCCCGUGUGCUUCGUGGGGAAGCUGGAAAAGAUUCAUCCCACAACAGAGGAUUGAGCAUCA,0.0811
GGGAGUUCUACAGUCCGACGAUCUCAUUUUUCUCUUUUCUUUCUUUCCUUAAAAGCCUAACUAAAGAUUAGGUUGUAAGAAAAACAGAAGCCAUGUUUCGAAGACCUGUGUUACAGGUAUUUCGUCAGUUUGUAAGACAUGAGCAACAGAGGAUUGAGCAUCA,0.163
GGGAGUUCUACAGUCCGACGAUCCUGUGACCACAAGAUCCUACCUGAGUGGCAGCUGAAGCACUUUUCUUCUCCUUGCCUGAACCCCCCCCUUUUGUUCCCCCAUCCCCCAGUGUCGGCUGAGAUGUUGCCUCUGCACGGUUCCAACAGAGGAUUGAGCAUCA,0.642
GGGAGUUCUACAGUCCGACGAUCGGCCUGGGACCGUCCUGGGCUAGUACAAAUAGCGGCAGUGGAGGCUCGAGAGGAAAGUUUGUUAGUGAGGCAGUGGUUAGAGGCCGUAUGUACGCUCCCUUUACUCGAUAGAUGUGUUCUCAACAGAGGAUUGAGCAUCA,0.309
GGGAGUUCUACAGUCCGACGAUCGGACAUCUGUCAAAUUGUUAUGUUCCUGUGAAACAAGUGAACACUCUUCAUAUACUAAUCUGCUUGUACAUCUGUAUUUGUAUAAUAUGUAAAUAUGUUAAUCCAAGCAAUGUGUCACUUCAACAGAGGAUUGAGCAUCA,0.15

# Repeated from above (set 4):
Sequence,bound/input enrichment [ratio]
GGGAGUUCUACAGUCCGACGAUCGCGGCAGAAUCAUGGUGGACAUAAUGCAGCUCCCCAAGUCGCGCAUCAACGCCAGCAUGUUACCACAGUAUAUCGACCGGCCCGUGUGCUUCGUGGGGAAGCUGGAAAAGAUUCAUCCCACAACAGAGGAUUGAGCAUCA,0.0811
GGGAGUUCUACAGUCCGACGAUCGGCCUGGGACCGUCCUGGGCUAGUACAAAUAGCGGCAGUGGAGGCUCGAGAGGAAAGUUUGUUAGUGAGGCAGUGGUUAGAGGCCGUAUGUACGCUCCCUUUACUCGAUAGAUGUGUUCUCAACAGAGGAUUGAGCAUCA,0.309
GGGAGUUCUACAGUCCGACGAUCGGAAGUACAAUGAUGGAGAUUGAUGGUGACAAAGGCAAACAAGGCGGGCCCACCUACUACAUAGACACUAAUGCUCUCCGCGUGCCCAGGGAGAACAUGGAGGCCAUCUCACCACUCAAGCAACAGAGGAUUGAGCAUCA,0.571
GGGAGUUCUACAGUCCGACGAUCUUAAUCCCCUUUACUGCUCCCCCACUUGUCAUGCUGAUAACAAAGUCUUAUAUCCCCGUCCUAGCUUUUACUCAGAUGGCUUAUGGAGCCGGUUUCCUAGCUUUCUUGGGAGGGAUCAGACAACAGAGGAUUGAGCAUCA,0.642
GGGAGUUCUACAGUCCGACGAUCGUAAUGUUUAUUCAUUUAACUUAUUUUUAGCACUUAGUAAAUAUUGUUAGUCUUAGACAAUAGCUCACAUUUUUUGAGAAGCAUGCCCUCCCUGUCCAUUUGUCUUAUAACAUGACCCAGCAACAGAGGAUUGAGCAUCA,33.3
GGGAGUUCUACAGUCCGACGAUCCUGUGACCACAAGAUCCUACCUGAGUGGCAGCUGAAGCACUUUUCUUCUCCUUGCCUGAACCCCCCCCUUUUGUUCCCCCAUCCCCCAGUGUCGGCUGAGAUGUUGCCUCUGCACGGUUCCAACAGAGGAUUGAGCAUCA,0.642
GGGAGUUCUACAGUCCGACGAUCUCAUUUUUCUCUUUUCUUUCUUUCCUUAAAAGCCUAACUAAAGAUUAGGUUGUAAGAAAAACAGAAGCCAUGUUUCGAAGACCUGUGUUACAGGUAUUUCGUCAGUUUGUAAGACAUGAGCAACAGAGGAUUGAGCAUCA,0.163
